Published values pooled from the literature.
Compare with care: the assays were run in different laboratories. Numbers after ± are the reported error.

| Structure (SMILES) | assay | test system | setting | how to read | measurement | result |
| --- | --- | --- | --- | --- | --- | --- |
| CO[C@@H]1[C@H](O)[C@@H](CO)O[C@H]1n1c([N+](=O)[O-])nc2c(=O)[nH]c(N)nc21 | depurination, RP-HPLC | citrate-phosphate buffer 0.5 mM | 2700 min, pH 5, 37 °C |  | nucleoside remaining fraction | 0.382 |
| OC[C@H]1O[C@@H](c2ccc(F)c(Cc3cc4ccccc4s3)c2)[C@H](O)[C@@H](O)[C@@H]1O |  | Japanese type 1 diabetes patients | oral, 100 mg/day, day 12 |  | hypoglycaemia adverse events | 1 % patients |
| CNC(=O)c1ccc(-c2cnc3ncc(Cc4ccc5ncccc5c4)n3n2)cc1F |  | Japanese patients | oral, 400 mg, any grade |  | Agitation dose reduction/interruption | 1% |
| CCn1ncc2c1-c1cnc(N)c(c1)O[C@H](C)c1cc(F)ccc1-c1nn(C)nc1C2 |  | female athymic nude mice, sample B PDX | oral, 0.2 mg/kg once daily for 1 days, 1 h |  | unbound plasma concentration | 24 ± 1.4 nM |
| COc1cc(Nc2ncc3c(n2)-c2ccc(Cl)cc2C(c2c(F)cccc2OC)=NC3)ccc1C(=O)O | refers to: Dysgeusia, grade 1 | cancer patients, phase 1/2 | oral, dose not given, with: pembrolizumab |  | patients with adverse event | 8% |
| Cc1[nH]nc(S(=O)(=O)NCc2ccc(Br)cc2C(F)(F)F)c1C(=O)O | colloidal aggregate formation, dynamic light scattering | 50 mM potassium phosphate buffer | 200 µM, pH 7.0, 1% DMSO | higher = more aggregation | DLS scattered light intensity | 8.88e+06 counts/s |
| CC=CC1CCC(C2CCC(CCC)CC2)CC1 (stereo not drawn) | refers to: compound | human pregnant women, male fetuses, cord serum | dose not given, paired maternal-cord samples, mean |  | concentration | 1.8 ng/mL |
| COC(=O)C(Cc1cccc(OC)c1C)NC(=O)CNCc1ccccc1 (stereo not drawn) |  | beagle dog | 1 µM |  | half-life | > 3 h |
| CNCCOC12CC3(C)CC(C)(CC(Cn4ncc(-c5ccc(N6CCc7cccc(C(=O)Nc8nc9ccccc9s8)c7C6)nc5C(=O)O)c4C)(C3)C1)C2 |  | beagle dog, male, anaesthetised | intravenous bolus, 0.03 mg/kg, 75 min | reference: baseline | dP/dt at 50 change | -3% |
| COc1ncc(-c2nc3c(n2C(C)C)[C@H](c2ccc(Cl)cc2)N(c2cc(Cl)cn(C)c2=O)C3=O)c(OC)n1 |  | human patients, plasma | oral, 7.5 mg, cycle 1 day 1, low-dose |  | median Tmax | 5.8 h |
| C=CC(=O)NC1CCN(c2ncc3ncnc(Nc4ccc(Oc5ccc6c(c5)ncn6C)c(C)c4)c3n2)CC1 |  | healthy male humans | oral, 240 mg, grade 2 |  | participants with back pain TEAE | 6.3% |
| COc1ccc(-c2c(-c3ccc(C#N)c(F)c3)nc(N3CCC(N)CC3)n(C)c2=O)cc1F |  | relapsed/refractory MZL patients | oral, 60 mg, dose expansion |  | discontinuation due to AE | 0% |
| CNCc1ccc(-c2[nH]c3cc(F)cc4c3c2CCNC4=O)cc1 |  | patients | oral, 600 mg twice daily, grade 2 |  | asthenia/fatigue incidence | 23.1% |
| CCCCC1=NC2(CCCC2)C(=O)N1Cc1ccc(-c2ccccc2S(=O)(=O)Nc2noc(C)c2C)c(COCC)c1 |  | healthy adult volunteers, plasma | oral, 200 mg, 14 days repeated dosing, fasted, crushed tablet |  | Cmax | 5530 ng/mL |
| C/C(=N\c1ccc(O)cc1)c1cc2ccccc2n1C |  | rat plasma | 1.5 ng/mL, 4 h, room temperature | reference: nominal concentration | remaining compound | 93.1 ± 6% |
| Cc1ccc([C@@H]2O[C@H](CO)[C@@H](O)[C@H](O)[C@H]2O)cc1Cc1ccc(-c2ccc(F)cc2)s1 |  | Japanese type 2 diabetes patients | 100 mg, day 17, 24 h urine collection | reference: baseline | urinary chloride excretion change | -70.2 mEq |
| NCCONC(=O)[C@@H]1CC[C@@H]2CN1C(=O)N2OS(=O)(=O)O | refers to: Moderate severity | healthy Chinese men | intravenous, 2 g, treatment-related |  | adverse event incidence | 0% |
| COC1=C(OC)[C@H](O)[C@H](C/C=C(\C)CC/C=C(\C)CCC=C(C)C)[C@@H](C)C1=O |  | Balb/c mice male, whole blood | oral, 50 mg/kg, 1 h |  | blood concentration | 54.8 nM |
| O=C(OC(C(F)(F)F)C(F)(F)F)N1CCN(Cc2cccc(Oc3ccccc3)c2)CC1 | PET blocking study | rhesus monkey, brain HIP | 0.03 mg/kg, compound pretreatment, with: [18F]T-401 tracer |  | k2 | 0.098 min⁻¹ |
| O=C(Nc1nc2cccc(-c3ccc(CN4CCS(=O)(=O)CC4)cc3)n2n1)C1CC1 | refers to: thrombocytopenia | rheumatoid arthritis patients | oral, 30 mg once daily, 4 weeks, any relatedness |  | treatment-emergent adverse events | 0% |
| O=C(CCCCCCC(=O)Nc1ccc(CC[18F])cc1)NO |  | athymic nu/nu male mice, LNCaP xenograft, spleen | intravenous, 2 h |  | tissue uptake | 0.9 ± 0.2 %ID/g |
| Cc1cc(-c2nccc3c2ccn3CC(=O)Nc2ccc(-c3cnccn3)cn2)ccn1 |  | human | 15 mg once daily, multiple ascending dose |  | vessel puncture site haematoma | 0% |
| C=CC(=O)NC1CCN(c2ncc3ncnc(Nc4ccc(Oc5ccc6c(c5)ncn6C)c(C)c4)c3n2)CC1 | refers to: musculoskeletal disorders (SOC) | human male | oral, dose not given, AEs, treatment-related, on drug, CTCAE |  | adverse events incidence | 0% |
| O=C(COc1ccc(Cl)cc1)NC12CC(c3nnc([C@H]4C[C@@H](OC(F)(F)F)C4)o3)(C1)C2 | refers to: Myalgia | healthy humans, both sexes | oral, 15 mg, single ascending dose | reference: subjects | treatment-emergent adverse events | 16.7% |
| CC1CC1(C(=O)O)C(=O)NCc1cc(Cl)c2c(c1)OCCCO2 (stereo not drawn) | colloidal aggregate formation, dynamic light scattering | 50 mM potassium phosphate buffer | 200 µM, pH 7.0, 1% DMSO | higher = more aggregation | DLS scattered light intensity | 713000 counts/s |
| O=C1CCc2ccc(OCCCCN3CCN(c4cccc(Cl)c4Cl)CC3)cc2N1 | refers to: Tremor | patients, CYP2D6 intermediate metabolizers | dose not given, long-acting oral or depot |  | adverse event incidence | 8.9% |
| COc1cccc(CC(C)NS(=O)(=O)c2c(C)oc(C)c2C(=O)O)c1 (stereo not drawn) | colloidal aggregate formation, dynamic light scattering | 50 mM potassium phosphate buffer | 200 µM, pH 7.0, 1% DMSO | higher = more aggregation | DLS scattered light intensity | 558000 counts/s |

| Structure (SMILES) | assay | test system | setting | how to read | measurement | result |
| --- | --- | --- | --- | --- | --- | --- |
| CNC(=O)c1ccc(-c2cnc3ncc(Cc4ccc5ncccc5c4)n3n2)cc1F | phase 1 clinical trial, refers to: blood creatinine increased | dose escalation cohort | oral, dose not given, grade 3 or 4 |  | adverse event incidence | 0% |
| COc1cccc(OC)c1-c1cc(C(=O)NC2(C(=O)O)C3CC4CC(C3)CC2C4)nn1-c1ccc(C(=O)N(C)CCCN(C)CCCN(C)C(=O)CN2CCN(CC(=O)[O-])CCN(CC(=O)[O-])CCN(CC(=O)[O-])CC2)cc1C(C)C.[177Lu+3] (stereo not drawn) |  | mouse HT-29 xenograft | 72 h, biodistribution | reference: tumour over large intestine | tumour-to-large intestine ratio | 58.2 |
| Cc1cc(C)c(CNC(=O)c2cc(Cl)c3c(c2C)O[C@@](C)([C@H]2CC[C@H](N(C)C)CC2)O3)c(=O)[nH]1 | refers to: Hypertension | human patients | oral, 200 mg once daily, 1 day onset day 14 |  | patients with grade ≥3 TEAE | 0% |
| CO[C@H]1CC[C@H](N2C(=O)CNc3ncc(-c4ccc(C(C)(C)O)nc4)nc32)CC1 |  | patients, urine | oral, 60 mg, day -1, geometric mean |  | urinary excretion Ae(0-24 h) | 51900 ng |
| CC[C@H](C)[C@H](NC(=O)[C@H](Cc1ccccc1)NC(=O)[C@H](CCC(=O)O)NC(=O)[C@H](CCCCNC(=O)COCCOCCNC(=O)COCCOCCNC(=O)CC[C@H](NC(=O)CCCCCCCCCCCCCCCCC(=O)O)C(=O)O)NC(=O)[C@H](C)NC(=O)[C@H](C)NC(=O)[C@H](CCC(N)=O)NC(=O)CNC(=O)[C@H](CCC(=O)O)NC(=O)[C@H](CC(C)C)NC(=O)[C@H](Cc1ccc(O)cc1)NC(=O)[C@H](CO)NC(=O)[C@H](CO)NC(=O)[C@@H](NC(=O)[C@H](CC(=O)O)NC(=O)[C@H](CO)NC(=O)[C@@H](NC(=O)[C@H](Cc1ccccc1)NC(=O)[C@@H](NC(=O)CNC(=O)[C@H](CCC(=O)O)NC(=O)C(C)(C)NC(=O)[C@@H](N)Cc1cnc[nH]1)[C@@H](C)O)[C@@H](C)O)C(C)C)C(=O)N[C@@H](C)C(=O)N[C@@H](Cc1c[nH]c2ccccc12)C(=O)N[C@@H](CC(C)C)C(=O)N[C@H](C(=O)N[C@@H](CCCNC(=N)N)C(=O)NCC(=O)N[C@@H](CCCNC(=N)N)C(=O)NCC(=O)O)C(C)C | QT interval corrected for heart rate, 12-lead Holter ECG | healthy human subjects | subcutaneous, 1.5 mg once weekly, 18 h post-dose, steady state | reference: placebo, time-matched baseline | placebo-subtracted change in QTcI | -6.1 ms |
| N#Cc1ccc2c(c1)[C@H]1CCCN(C(=O)c3ccc4[nH]cnc4c3)[C@H]1C2 |  | human | 80 mg, day 15 |  | minimum ACTH level | 4.1 pmol/L |
| Cn1cc([C@H]2C[C@H]3CSC(N)=N[C@@]3(c3ccc(F)cc3F)CO2)cn1 |  | male 129/SVE mouse, brain | subcutaneous, 10 mg/kg, 13 h |  | brain concentration | 65 nM |
| CCN1/C(=C/C(C)=O)Sc2ccc(F)cc21 |  | cynomolgus monkey | oral, 100 mg/kg, 0.5 h post-dose | reference: pre-dose | diastolic blood pressure change | 102 ± 8.1% |
| CC(C)/N=C(\N)c1ccc(NC(=O)c2ccc(C(=O)Nc3ccc(/C(N)=N/C(C)C)cc3)cc2)cc1 | haemolysis | sheep erythrocytes | 1 h, pH 7.5 |  | HC50 | > 128 µg/mL |
| Cc1nc2cccc(OCC(C)(C)C(=O)NC(C)C)c2c(N)c1C(=O)O |  | Sprague-Dawley rat, female, plasma | oral, 10 mg/kg, day 7 over day 1, 7-day repeated dosing | reference: day 7 over day 1 | Cmax ratio | 0.96 ± 0.3 |
| O=C(O)CCC(=O)O.[2H]C([2H])([2H])Oc1cc(C)c2[nH]ccc2c1CN1CC[C@@H](C2CC2)C[C@H]1c1ccc(C(=O)O)cc1 |  | healthy Chinese subjects | oral, 600 mg, single ascending dose |  | subjects with elevated uric acid | 0% |
| O=S(=O)(NCCCOc1ccccc1F)c1cc(Cl)cc(Cl)c1O | colloidal aggregate formation, dynamic light scattering | 50 mM potassium phosphate buffer | 200 µM, pH 7.0, 1% DMSO | higher = more aggregation | DLS scattered light intensity | 666000 counts/s |
| CCn1c(=O)c(-c2cc(NC(=O)Nc3ccccc3)c(F)cc2Br)cc2cnc(NC)cc21 | refers to: accidental overdose | healthy human, matched to severe hepatic impairment | oral, 50 mg single dose |  | participants with grade ≥ 3 TEAE | 0% |
| CC(=O)N(C)[C@H]1CCN(C(=O)c2cnc3c(c2)C[C@](C)(c2ccc(F)cc2)N3)C1 |  | healthy male subjects, multiple rising dose | oral, 15 mg once daily |  | severe adverse events | 0% |
| C[C@]1(Cn2ccnn2)[C@H](C(=O)O)N2C(=O)C[C@H]2S1(=O)=O |  | human whole blood | concentration not given, 8 h, 4 °C |  | deviation from nominal concentration | 8.3% |
| COc1ccnc(C(=O)NCC(=O)O)c1O | soil adsorption | tested soils | geometric mean |  | Freundlich coefficient KF | 9.56 mL/g |
| Cc1cc(Cl)c(O)c(NS(=O)(=O)c2cc(Cl)cc(Cl)c2O)c1F | colloidal aggregate formation, dynamic light scattering | 50 mM potassium phosphate buffer | 200 µM, pH 7.0, 1% DMSO | higher = more aggregation | DLS scattered light intensity | 591000 counts/s |
| CCn1cc(C(=O)N2CCOCC2)c(=O)c2cc(NC3Cc4ccccc4C3)cnc21 |  | human, fed | oral suspension, 600 mg/day twice daily, day 8, median |  | Tmax | 4 h |
| C=CC(=O)N1CCC(c2ccc(C(N)=O)c(-c3ccc(Oc4ccccc4)cc3)n2)CC1 |  | relapsed/refractory mantle cell lymphoma patients | oral, 150 mg once daily, part, CTCAE v4.03 |  | serious treatment-related AE rate | 0% |
| CCOCc1nc(O)c(-c2nnc(Cc3ccc(Cl)cn3)o2)c(O)c1-c1c(OC)cccc1OC |  | anaesthetised rat, plasma | intravenous infusion, 1 µg/kg/min, 15 min |  | plasma concentration | 95 ± 5 nM |
| O=S(=O)(NC1CCSc2c(F)cccc21)c1c(O)cc(F)c(F)c1F (stereo not drawn) | colloidal aggregate formation, dynamic light scattering | 50 mM potassium phosphate buffer | 200 µM, pH 7.0, 1% DMSO | higher = more aggregation | DLS scattered light intensity | 1.37e+06 counts/s |
| Cc1c(C(=O)O)ccc2c3n(nc12)[C@@H]1[C@H](C3)N(CC2CC2)[C@@]2(C(=O)Nc3cc(Cl)ccc32)[C@H]1c1cccc(Cl)c1F |  | human patients phase Ia | oral, dose not given, all grades, all patients |  | gastroesophageal reflux incidence | 13% |
| CN[C@@H]1COc2c(S(=O)(=O)NC(=O)Nc3c4c(cc5c3CCC5)CCC4)cnn2C1 |  | healthy human volunteers, urine | oral, 600 mg, high-fat meal |  | fraction excreted in urine 0-48 h | 0.119 |
| COC(=O)c1ccccc1-c1c2ccc(=O)cc-2oc2c1ccc1cccc(N(C)C)c12 |  | aqueous HCl 10% DMSO | pH 1.9 |  | extinction coefficient | 10100 |
| O=C(/C=C/CCc1ccc(O)cc1)/C=C/c1ccc(O)cc1 |  | nude mouse MCF7 xenograft | 10 mg/kg, day 8 |  | body weight | 19.6 ± 1.46 g |
| CCc1cc(C(=O)NC)c2nccc(N3CCc4c(cc(Cn5ccnc5)cc4-c4cn(C)nc4C(F)(F)F)C3=O)c2c1 |  | Sprague Dawley rat | oral, 100 mg/kg twice daily, 7 days | reference: vehicle | kidney weight change | -1.31% |
| CCOc1c([C@H](C)n2nc(C)c3c(N)ncnc32)cc(Cl)c(F)c1[C@@H]1CNC(=O)C1 | refers to: QRS ≤100 ms | previously treated B-cell malignancy | oral, 20 mg once daily, baseline below thresholds |  | patients | 96.4% |
